Values quoted from earlier work that unrelated publications cite.
Several values in a cell are separate wells, animals, samples, runs or records. Converted amounts (≈) assume the structure as drawn.
Chain of UniProt P06536 (whole entry, looked up): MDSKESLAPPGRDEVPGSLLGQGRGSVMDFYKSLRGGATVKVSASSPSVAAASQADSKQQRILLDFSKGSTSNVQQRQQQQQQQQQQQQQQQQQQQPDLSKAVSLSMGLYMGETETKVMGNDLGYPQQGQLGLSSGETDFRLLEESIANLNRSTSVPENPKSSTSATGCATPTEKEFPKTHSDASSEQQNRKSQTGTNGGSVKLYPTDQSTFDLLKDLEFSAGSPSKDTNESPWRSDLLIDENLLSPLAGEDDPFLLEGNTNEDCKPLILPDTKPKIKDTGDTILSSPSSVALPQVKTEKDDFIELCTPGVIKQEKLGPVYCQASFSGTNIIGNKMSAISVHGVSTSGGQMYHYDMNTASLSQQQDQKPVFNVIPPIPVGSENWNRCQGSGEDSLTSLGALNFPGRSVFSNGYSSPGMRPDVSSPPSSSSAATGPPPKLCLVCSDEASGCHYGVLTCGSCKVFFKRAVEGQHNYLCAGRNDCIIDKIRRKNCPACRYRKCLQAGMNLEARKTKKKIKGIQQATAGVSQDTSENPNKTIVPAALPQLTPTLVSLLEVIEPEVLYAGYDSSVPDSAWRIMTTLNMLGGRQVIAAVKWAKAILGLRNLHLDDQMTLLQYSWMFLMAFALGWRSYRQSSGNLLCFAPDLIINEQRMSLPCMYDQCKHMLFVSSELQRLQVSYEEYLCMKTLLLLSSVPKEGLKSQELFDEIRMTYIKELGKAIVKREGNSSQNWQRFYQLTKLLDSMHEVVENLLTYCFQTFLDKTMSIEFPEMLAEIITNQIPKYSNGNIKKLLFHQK
Chain of UniProt Q9Y2H1 (whole entry, looked up): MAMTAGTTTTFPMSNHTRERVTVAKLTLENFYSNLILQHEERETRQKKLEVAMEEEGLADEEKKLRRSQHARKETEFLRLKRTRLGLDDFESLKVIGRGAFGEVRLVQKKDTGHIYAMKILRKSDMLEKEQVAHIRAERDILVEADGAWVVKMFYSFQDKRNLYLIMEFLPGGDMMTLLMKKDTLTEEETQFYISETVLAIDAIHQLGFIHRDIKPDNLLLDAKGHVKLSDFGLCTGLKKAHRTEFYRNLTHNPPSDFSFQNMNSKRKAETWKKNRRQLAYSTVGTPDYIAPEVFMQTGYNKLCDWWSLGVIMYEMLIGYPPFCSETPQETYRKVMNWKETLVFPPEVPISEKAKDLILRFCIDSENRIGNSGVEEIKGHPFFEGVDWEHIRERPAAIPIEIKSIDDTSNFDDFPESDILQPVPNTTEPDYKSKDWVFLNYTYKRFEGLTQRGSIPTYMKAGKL

SMILES	target or system	test	test system	setting	scale	measurement	result
[N-]=[N+]=N[C@]1(CO)O[C@@H](n2ccc(N)nc2=O)[C@@H](F)[C@@H]1O	HIV-1	viral replication	PBMC	–	–	EC50	0.34 to 6.9 µM
CNC(C)C1CCC(N)C(OC2C(N)CC(N)C(OC3OCC(C)(O)C(NC)C3O)C2O)O1 (stereo not shown)	Enterobacter cloacae	–	clinical isolate RKI-No_766/15	–	–	MIC	1 µg/mL (≈ 2.09 µM)
Nc1cc(C(F)(F)F)c(-c2nc(N3CCOCC3)nc(N3CCOCC3)n2)cn1	STK38L (Homo sapiens, UniProt Q9Y2H1)	enzyme activity	–	10 µM	relative to: untreated	remaining activity	93%
COc1ccccc1Oc1cccc(CN2CCC(NC(=O)C3CC(=O)Nc4ccccc43)CC2)c1 (stereo not shown)	human CCR8 F112A mutant (TM3)	IP accumulation, agonist	–	–	–	EC50	0.037 µM
CCc1c(Cl)c(O)c(Cl)c(O)c1C(=O)O[C@H]1[C@H](O)[C@H](OC)[C@H](OC/C2=C\C=C\C[C@H](O)/C(C)=C/[C@H](CC)[C@@H](O[C@@H]3OC(C)(C)[C@@H](OC(=O)C(C)C)[C@H](O)[C@@H]3O)/C(C)=C/C(C)=C/C[C@@H]([C@@H](C)O)OC2=O)O[C@@H]1C	Pseudomonas aeruginosa	–	ATCC 27853	–	–	MIC	> 128 µg/mL
Cc1cnc(N2CC3(CCOCC3)C2)c(C(=O)Nc2ccc(C(=O)N3CCc4cc(C(=O)Nc5c(C)cccc5F)sc4-c4ccccc43)cc2)c1	respiratory syncytial virus	cytopathic effect	B WST	–	–	IC50	0.0195 µg/mL
CCC(=O)O[C@]1(C(=O)SCF)[C@H](C)C[C@H]2[C@@H]3C[C@H](F)C4=CC(=O)C=C[C@]4(C)[C@@]3(F)[C@@H](O)C[C@@]21C	Nr3c1 (Rattus norvegicus, UniProt P06536)	–	rat, spleen	intravenous, 90 nmol/kg, 4.008 (unit not given)	–	receptor occupancy	38.3% and 20.7%
c1cc(CN2CCN(c3ccncc3)CC2)cc(-c2ccc(-c3nc4ccccc4[nH]3)cc2)c1	Plasmodium falciparum	whole cell extended time	3D7	72 h	–	IC50	0.15 µM
C[C@H]1COCCN1c1nc(-c2cnc(N)cc2C(F)F)nc(N2CCOCC2)n1	SNU-C2B	–	–	–	–	GI50	0.728 µM
COc1ccc(C=CC(=O)NC(=O)c2ccccc2OC(=O)c2ccccc2)cc1OC	Plasmodium falciparum	whole cell extended time	3D7	72 h	–	IC50	0.91 µM
CC1(C)S[C@@H]2[C@H](NC(=O)[C@H](N)c3ccccc3)C(=O)N2[C@H]1C(=O)O	Acinetobacter baumannii	–	clinical isolate RKI-No_3/15	–	–	MIC	> 16 µg/mL
Oc1ccc(-c2nc(-c3ccc(OC4CCCC4)cc3)no2)cc1	Pseudomonas aeruginosa	–	ATCC 27853	–	–	MIC	> 128 µg/mL
Cc1cc(C)c2cc(CNCCCNc3nc4ccccc4[nH]3)[nH]c2c1	Plasmodium falciparum	whole cell extended time	3D7	72 h	–	IC50	0.77 µM

For quick reference, copied from above:
SMILES	target or system	test	test system	setting	scale	measurement	result
Oc1ccc(-c2nc(-c3ccc(OC4CCCC4)cc3)no2)cc1	Pseudomonas aeruginosa	–	ATCC 27853	–	–	MIC	> 128 µg/mL
Cc1cc(C)c2cc(CNCCCNc3nc4ccccc4[nH]3)[nH]c2c1	Plasmodium falciparum	whole cell extended time	3D7	72 h	–	IC50	0.77 µM
